Measurements from different studies.
Compare with care: the assays were run in different laboratories. Values joined by “and” are separate records of one study, mostly repeats; a detail may differ. Numbers after ± are the reported error.

Compound = CCN(CC)c1ccc2c(-c3ccccc3C(=O)OCCOCC[18F])c3ccc(=[N+](CC)CC)cc-3oc2c1; test system = rat, gut; conditions = dose not given, 60 min post injection; tissue uptake = 1.69 ± 0.42 %ID/g
Compound = O=C(O)CCCN1CCN2CCN(CC1)CC(=O)[O][Al]([18F])[O]C(=O)C2; test system = Sprague-Dawley rat renal pedicle ligation, bowel, intestines and stomach; conditions = dose not given, 60 min; tissue uptake = 3.2 ± 0.6 % injected dose
Compound = O=C(c1ccc(F)cc1)C1CCN(C2Cc3c(cccc3OCC[18F])CC2O)CC1 (single isomer, unassigned; (-)); test system = Sprague-Dawley rat, male, hippocampus; conditions = 5 min post-injection; tissue uptake = 0.645 %ID/g
Compound = CCNc1cc2[o+]c3cc(NCC)c(C)cc3c(-c3ccccc3C(=O)OCCOCC[18F])c2cc1C; test system = rat, mandibular gland; conditions = 30 min; tissue uptake = 2.01 ± 0.26 %ID/g
Compound = COc1cc2ccnc(Cc3ccc(O[11CH3])c(OC)c3)c2cc1OC; test system = Sprague-Dawley rats, fat; conditions = intravenous, 0.5 h; tissue uptake = 0.226 ± 0.026 %ID/g
Compound = CCN(CC)c1ccc2c(-c3ccccc3C(=O)OCCC[18F])c3ccc(=[N+](CC)CC)cc-3oc2c1; test system = rat, heart; conditions = 60 min; tissue uptake = 1.32 %ID/g and 1.03 %ID/g
Compound = COc1ccc(NC(=O)Cn2c(=O)c3ccccc3n(CC(=O)Nc3cc([125I])c(OC)cc3OC)c2=O)cc1; test system = Wistar rat (normal), fat; conditions = intravenous, 0.5 h; tissue uptake = 0.09 ± 0.01 %ID/g
Compound = CN(C)c1ccc(C(=O)NCCCCN2CCN(c3ccccc3O[11CH3])CC2)cc1; test system = male Sprague Dawley rat, liver; conditions = iv, 5 min; how to read = relative to: untreated; tissue uptake = 1.52 ± 0.331 %ID/g
